Published values from different studies.
Values joined by “and” are separate records of one study, mostly repeats; a detail may differ. Numbers after ± are the reported error.
rep main protease: Replicase polyprotein 1ab, main protease (rep, Severe acute respiratory syndrome coronavirus 2, UniProt P0DTD1)

Substance	tested on	test	test system	conditions	endpoint	result
O=c1cc(-c2ccc(Oc3c(O)cc4oc(-c5ccc(O)cc5)cc(=O)c4c3O)cc2)oc2cc(O)cc(O)c12	rep main protease	reporter gene (mKate2), inhibitor	–	20 µM	inhibition	-0.035%
CC#C[C@]1(O)CCC2C3CCC4=CC(=O)CCC4=C3[C@@H](c3ccc4c(c3)OCO4)C[C@@]21C (stereo partly drawn)	SARS-CoV-2	viral replication	USA-WA1/2020	–	EC90	6.8 µM and 4.25 µM
CCC(CC)COC(=O)[C@H](C)N[P@](=O)(OC[C@H]1O[C@@](C#N)(c2ccc3c(N)ncnn23)[C@H](O)[C@@H]1O)Oc1ccccc1	SARS-CoV-2	viral replication, qRT-PCR of viral RNA	Vero, Washington	–	EC90	3.7 ± 0.4 µM
CC(C)OC(=O)[C@H](C)N[P@](=O)(CO[C@H](C)Cn1cnc2c(N)ncnc21)Oc1ccccc1	SARS-CoV-2	viral replication	Vero	48 h	EC90	> 20 µM
Cc1cccc(/C=N/Nc2cc(N3CCOCC3)nc(OCCc3ccccn3)n2)c1	SARS-CoV-2	viral replication	Huh-7-ACE2, USA-WA1/2020	–	EC90	0.56 µM
NC(=O)c1ncn([C@@H]2O[C@H](CO)[C@@H](O)[C@H]2O)c1O	rep main protease	reporter gene (mKate2), inhibitor	HEK293T	20 µM	inhibition	-0.271%
N#C[C@@]1(n2ccc(N)nc2=O)O[C@H](CO)[C@@H](O)[C@H]1O	SARS-CoV-2	viral replication, qRT-PCR of viral RNA	Calu-3, Washington	–	EC90	1.9 ± 0.7 µM
COc1cc2c(cc1N1C[C@@H](C)N[C@@H](C)C1)N(C(=O)c1ccc(-c3ccc(-c4noc(C)n4)cc3C)cc1)CC2	SARS-CoV-2	viral replication	Huh-7-ACE2, USA-WA1/2020	–	EC90	> 2.5 µM
CC[C@H](C)[C@H](NC(=O)[C@H](CC(C)C)NC(=O)[C@H](Cc1c[nH]c2ccccc12)NC(=O)[C@H](CCC(N)=O)NC(=O)[C@@H](NC(=O)[C@H](Cc1ccccc1)NC(=O)[C@H](C)NC(=O)[C@H](CCCCNC(=O)COCCOCCNC(=O)COCCOCCNC(=O)CC[C@H](NC(=O)CCCCCCCCCCCCCCCCCCC(=O)O)C(=O)O)NC(=O)[C@H](CCC(N)=O)NC(=O)[C@H](C)NC(=O)[C@@H](NC(=O)[C@H](CCCCN)NC(=O)[C@H](CC(=O)O)NC(=O)[C@H](CC(C)C)NC(=O)C(C)(C)NC(=O)[C@@H](NC(=O)[C@H](CO)NC(=O)[C@H](Cc1ccc(O)cc1)NC(=O)[C@H](CC(=O)O)NC(=O)[C@H](CO)NC(=O)[C@@H](NC(=O)[C@H](Cc1ccccc1)NC(=O)[C@@H](NC(=O)CNC(=O)[C@H](CCC(=O)O)NC(=O)C(C)(C)NC(=O)[C@@H](N)Cc1ccc(O)cc1)[C@@H](C)O)[C@@H](C)O)[C@@H](C)CC)[C@@H](C)CC)C(C)C)C(=O)N[C@@H](C)C(=O)NCC(=O)NCC(=O)N1CCC[C@H]1C(=O)N[C@@H](CO)C(=O)N[C@@H](CO)C(=O)NCC(=O)N[C@@H](C)C(=O)N1CCC[C@H]1C(=O)N1CCC[C@H]1C(=O)N1CCC[C@H]1C(=O)N[C@@H](CO)C(N)=O	–	–	healthy subjects, single ascending dose	2.5 mg, baseline	serum AST	19.7 ± 5.6 U/L
Cn1cnc(Cn2c(=O)[nH]/c(=N\c3cc4cn(C)nc4cc3Cl)n(Cc3cc(F)c(F)cc3F)c2=O)n1	SARS-CoV-2	viral replication	Delta strain	48 h	EC90	0.0514 ± 0.0182 µM
Nc1nc(=O)n([C@@H]2CS[C@H](CO)O2)cc1F	SARS-CoV-2	viral replication	Vero	48 h	EC90	> 20 µM
CC(C)(C)[C@H](NC(=O)C(F)(F)F)C(=O)N1C[C@H]2[C@@H]([C@H]1C(=O)N[C@H](C#N)C[C@@H]1CCNC1=O)C2(C)C	SARS-CoV-2	viral replication, qRT-PCR of viral RNA	Vero, Washington	–	EC90	5.6 ± 1.1 µM
C[C@@H]1CS/C(=N\NC(=O)C(=O)[C@H](NC(=O)C2CCCCCC2)C2CCOCC2)N1C	SARS-CoV-2	viral replication	Huh-7-ACE2, USA-WA1/2020	–	EC90	0.813 µM
Nc1ncnc2c([C@@H]3N[C@H](CO)[C@@H](O)[C@H]3O)c[nH]c12	Japanese encephalitis virus	viral replication, inhibitor	Vero 76	3 µM	inhibition	2%
Cn1cnc(Cn2c(=O)[nH]/c(=N\c3cc4cn(C)nc4cc3Cl)n(Cc3cc(F)c(F)cc3F)c2=O)n1	–	–	human, severe renal impairment	oral, 375 mg	anaemia TEAE, Mild severity	0%
N#C[C@@]1(c2ccc3c(N)ncnn23)O[C@H](CO)[C@@H](O)[C@H]1O	SARS-CoV-2	infectious virus yield	Vero C1008, VOC-202012/01	48 h, 90% decrease endpoint	EC90	93.4 ± 4.7 µM
calpain inhibitor III	SARS-CoV-2	viral replication	293T-ACE2, USA-WA1/2020	–	EC90	0.304 µM
CC(C)(C)[C@H](NC(=O)C(F)(F)F)C(=O)N1C[C@H]2[C@@H]([C@H]1C(=O)N[C@H](C#N)C[C@@H]1CCNC1=O)C2(C)C	SARS-CoV-2	viral replication	Delta strain	72 h	EC90	0.0468 ± 0.0102 µM

Excerpt of the above:
Substance	tested on	test	test system	conditions	endpoint	result
Cn1cnc(Cn2c(=O)[nH]/c(=N\c3cc4cn(C)nc4cc3Cl)n(Cc3cc(F)c(F)cc3F)c2=O)n1	SARS-CoV-2	viral replication	Delta strain	48 h	EC90	0.0514 ± 0.0182 µM
Nc1nc(=O)n([C@@H]2CS[C@H](CO)O2)cc1F	SARS-CoV-2	viral replication	Vero	48 h	EC90	> 20 µM
